Measurements collected from several papers.
Numbered parts are unrelated; each lists some results of a single study. Changes are numbered by the printed parent chain.

Study 1 — method: DHFR PCA, deep sequencing; sample: yeast; with: (+)-ABA 0.0091 µM; relative to: wild-type fitted maximum; reading: higher = stronger binding
Target: ABI1, truncated, D143A, DHFR fusion (Arabidopsis thaliana)
Notes: methotrexate growth selection, single substitutions
Parent: PYL1, truncated, DHFR fusion (Arabidopsis thaliana); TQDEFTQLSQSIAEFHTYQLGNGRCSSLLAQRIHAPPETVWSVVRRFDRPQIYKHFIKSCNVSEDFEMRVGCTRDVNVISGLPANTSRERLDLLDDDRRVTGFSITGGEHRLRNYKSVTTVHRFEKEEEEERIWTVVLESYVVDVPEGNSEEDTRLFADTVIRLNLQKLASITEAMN; partner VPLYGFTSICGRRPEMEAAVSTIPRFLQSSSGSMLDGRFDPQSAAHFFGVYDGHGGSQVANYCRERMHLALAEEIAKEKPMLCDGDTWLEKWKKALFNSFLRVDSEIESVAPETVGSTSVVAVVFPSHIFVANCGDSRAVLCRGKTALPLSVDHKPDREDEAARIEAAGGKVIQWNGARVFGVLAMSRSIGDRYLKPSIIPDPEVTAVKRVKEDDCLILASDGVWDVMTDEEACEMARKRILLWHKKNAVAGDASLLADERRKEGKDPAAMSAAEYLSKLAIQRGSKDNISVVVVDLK
Variant | relative binding score
L164V | 2.94%
P37L | 0.929%
Q7D | 16.8%
Q19G | 0.773%
F124G | 3.97%
V143M | 7.27%
H55V | 43.2%
I79Q | 12.9%

Study 2 — target: CCND2, cyclin fold, Cln2 fusion (human); method: yeast growth competition, sequencing; sample: yeast; notes: weak parent motif; relative to: not given; reading: higher = stronger binding
Parent: SAMHD1 docking peptide (human); ASKSRVQLFKDDP
Variant | normalised enrichment score
ASKSRVQLFKDQP [D12Q] | -0.0748
ASKSRFQLFKDDP [V6F] | -0.0911
ASKSRVQVFKDDP [L8V] | 0.0481
ASKSRVQLVKDDP [F9V] | 0.573
ASKSRVMLFKDDP [Q7M] | -0.203
ASKSRVQLFKSDP [D11S] | 0.405
ASKNRVQLFKDDP [S4N] | 0.0576
ASKRRVQLFKDDP [S4R] | 0.308
ASKSRVFLFKDDP [Q7F] | 0.186
ASKSRVQLFKWDP [D11W] | -0.0239

Study 3 — method: RNA Bind-n-Seq; form: RNA; sample: in vitro; tested at: 200 nM; notes: whole 134-nt RNA, ends assumed; with: 150 mM LiCl; relative to: input library; reading: higher = stronger binding; all molecules: 7-deaza-guanosine replaces G
Target: Fragile X messenger ribonucleoprotein 1, C-terminal low-complexity region (Fmr1, Mus musculus, UniProt P35922)
Constant ends, left off below: GGGAGUUCUACAGUCCGACGAUC … UGGAAUUCUCGGGUGUCAAGG
Oligonucleotide | log2 enrichment
GCAGGAAGUAAAAACAAAUGGAAAGGCUUCGGAUAGUGGCAGGGGUGGGGGUUGCUAAGGAAAGGGUGGGAUGGGAGUGGGUAAAGAGUU | 1.28
UGUUCACAUUUUAAGGAUGACAAGUCCACUAUAUGUAACACGUAAGAAUGCUAUCCUGGCAGUAGACACAGGGCCAGAAUAAACUGGCAA | -1.91
CCUCAAGUCCUGUGCUACACAUCGUAUGUACCGAAUCGGGCCGGCCGGCCGGAAAGUAUUAUGUUACGCCGUUCGGAUCUGCACUUCCAG | 0.304
AGUCCUGUGCUACACAUCGUAUGUACCGAAUCGGAAAAAGGGAAAAAGGGGAAAAAGGAAAGUAUUAUGUUACGCCGUUCGGAUCUGCAC | -0.846
UGGGAGGUGGAUUUUGUUUAGUUUUUUAGCUCAUUUCCAGGGGUGGGAAUUUUUUUUUAAUAUGUGUCAUGAAUAAAGUUGUUUUUGAAA | 0.453
UCAAGUCCUGUGCUACACAUCGUAUGUACCGAAUCGGUGGUUUGGAAAAAAAGGAAAGUAUUAUGUUACGCCGUUCGGAUCUGCACUUCC | -0.695
AAAUAUCAGUGAUCAUCGCAAGGAAGGAGGCAGACAAGAGUAAGGCACACCUGACUCUUAGGACUAGCAGUCAGAACCAGGAGGAAAGGU | -0.868
CAAGUCCUGUGCUACACAUCGUAUGUACCGAAUCGGGCCCGGGCCCGGGGCCCGGAAAGUAUUAUGUUACGCCGUUCGGAUCUGCACUUC | -1.72
GUCCUGUGCUACACAUCGUAUGUACCGAAUCGGGGAAAAAAAGGGGAAAGGGGUGGGGAAAGUAUUAUGUUACGCCGUUCGGAUCUGCAC | -0.862
AGUCCUGUGCUACACAUCGUAUGUACCGAAUCGGUUUUUGGGUUUUUGGUUUUUGGGGAAAGUAUUAUGUUACGCCGUUCGGAUCUGCAC | -1.18
UGGCCCUGGUGGCAUGCGGGGAGGAAGAGGUGGCCUCAUGGAUCGUGGUGGUCCCGGUGGAAUGUUCAGAGGUGGCCGUGGUGUAGACAG | -1.1

Other studies, line by line
Molecule | target | assay | test system | conditions | scale | measurement | value
PhoQ, residues 284 288 289 292 302 303 GANMMA | PhoP, residues 12 14 15 18 19 YHFSH (Escherichia coli, UniProt P23836) | Sort-seq, refers to: YFP reporter | E. coli | PhoQ-PhoP variant library, with: 10 µM Mg2+ | relative to: high Mg2+ state, higher = stronger signaling | fold induction | 5.41

Repeated from above (study 3):
Oligonucleotide | log2 enrichment
UGUUCACAUUUUAAGGAUGACAAGUCCACUAUAUGUAACACGUAAGAAUGCUAUCCUGGCAGUAGACACAGGGCCAGAAUAAACUGGCAA | -1.91
CCUCAAGUCCUGUGCUACACAUCGUAUGUACCGAAUCGGGCCGGCCGGCCGGAAAGUAUUAUGUUACGCCGUUCGGAUCUGCACUUCCAG | 0.304
AGUCCUGUGCUACACAUCGUAUGUACCGAAUCGGAAAAAGGGAAAAAGGGGAAAAAGGAAAGUAUUAUGUUACGCCGUUCGGAUCUGCAC | -0.846
UGGGAGGUGGAUUUUGUUUAGUUUUUUAGCUCAUUUCCAGGGGUGGGAAUUUUUUUUUAAUAUGUGUCAUGAAUAAAGUUGUUUUUGAAA | 0.453
